Results of several laboratories.
“And” joins repeats or separate records; there may be more than shown. ± marks the error that the study gave.
Nuclear receptor subfamily 2 group C member 2 ligand-binding domain: Nuclear receptor subfamily 2 group C member 2, ligand-binding domain (Homo sapiens, UniProt P49116)
Sequence of UniProt P49116 (whole entry, looked up): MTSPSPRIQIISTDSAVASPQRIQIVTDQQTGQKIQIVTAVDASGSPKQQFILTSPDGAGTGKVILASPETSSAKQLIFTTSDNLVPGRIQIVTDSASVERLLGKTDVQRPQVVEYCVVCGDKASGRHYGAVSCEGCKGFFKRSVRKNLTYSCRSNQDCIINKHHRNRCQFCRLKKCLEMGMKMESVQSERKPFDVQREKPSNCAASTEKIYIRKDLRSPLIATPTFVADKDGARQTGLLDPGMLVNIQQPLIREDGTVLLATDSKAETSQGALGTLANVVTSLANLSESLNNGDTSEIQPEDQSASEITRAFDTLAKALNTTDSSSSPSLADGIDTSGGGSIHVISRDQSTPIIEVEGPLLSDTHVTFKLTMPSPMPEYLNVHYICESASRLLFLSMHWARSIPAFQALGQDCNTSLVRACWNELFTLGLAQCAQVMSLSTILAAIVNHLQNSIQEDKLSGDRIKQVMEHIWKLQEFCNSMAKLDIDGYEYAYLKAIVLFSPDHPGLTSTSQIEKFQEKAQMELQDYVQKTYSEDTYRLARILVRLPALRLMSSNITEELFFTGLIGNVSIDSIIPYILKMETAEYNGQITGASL

`O=[N+]([O-])c1ccc(-c2ccc(O)cc2)c2cccnc12` gave an MRT of 0.955 h (ICR mice male, plasma; oral, 5 mg/kg).
For `O=C(O)/C=C/c1ccccc1O`, the plasma concentration was 168 nM (human plasma; mean).
With `CCN1CCCC1CNC(=O)c1cc(S(=O)(=O)CC)c(N)cc1OC` (centres unmarked) the Kd was 0.04 nM (Nuclear receptor subfamily 2 group C member 2 ligand-binding domain; SPR imaging).
With `C[C@H]1[C@H](NC(=O)/C(=N\OC(C)(C)C(=O)O)c2csc(N)n2)C(=O)N1S(=O)(=O)O` the amount permeated was 2.29 nmol (starch gel membrane permeability; Gram-negative envelope surrogate; 200 µM, 30 min, pH 7.4).
`Cn1nc2c(=O)n(C3CC3)ncc2c1[C@](O)(c1cnc(C(F)(F)F)c(Cl)c1)C(F)(F)F` gave a CL of 2.76 ± 0.0642 mL/min/kg (rat Sprague-Dawley male, plasma; intravenous, 1 mg/kg).
For `CCc1cc(OC)c2nccc(N3CCc4c(cc(Cn5ccnc5)cc4-c4cn(C)nc4C(F)(F)F)C3=O)c2c1`, “AUC extrapolated fraction” read 0.3% (Sprague Dawley rat, male, plasma; intravenous, 3 mg/kg).
For `O=C(N[C@H](Cc1c[nH]c2ccccc12)C(=O)Nc1ccncc1)c1ccc(N2CCN(c3ccc(F)cc3F)CC2)cc1F`, the concentration was 10200 nM (Swiss Webster mouse, female, heart; oral, 50 mg/kg, 8 h, 20% HPβCD vehicle).
With `CN[C@H](CC(C)C)C(=O)N[C@H]1C(=O)N[C@@H](CC(N)=O)C(=O)N[C@H]2C(=O)N[C@H]3C(=O)N[C@H](C(=O)N[C@H](C(=O)O)c4cc(O)cc(O)c4-c4cc3ccc4O)[C@H](O)c3ccc(c(Cl)c3)Oc3cc2cc(c3O[C@@H]2O[C@H](CO)[C@@H](O)[C@H](O)[C@H]2O[C@H]2C[C@](C)(N)[C@H](O)[C@H](C)O2)Oc2ccc(cc2Cl)[C@H]1O` the amount permeated was 1.87 nmol (starch gel membrane permeability; Gram-negative envelope surrogate; 200 µM, 90 min, pH 7.4).
With `Cc1ccc(NC(=O)CCCCCC(=O)Nc2ccccc2N)cc1` the viability was 196% (OCI-Ly1; 0.1 µM, 120 h).
With `CO[C@H]1C[C@@H]2CC[C@@H](C)[C@@](O)(O2)C(=O)C(=O)N2CCCC[C@H]2C(=O)O[C@H]([C@H](C)C[C@@H]2CC[C@@H](O)[C@H](OC)C2)CC(=O)[C@H](C)/C=C(\C)[C@@H](O)[C@@H](OC)C(=O)[C@H](C)C[C@H](C)/C=C/C=C/C=C/1C` the heart rate was 31.5 ± 4.6 beats/min (healthy adult horses; oral, 0.06 mg/kg, 0 h).
For `O=c1c2ccccc2oc2ccccc12`, the solubility was 0.108 mole fraction (tricaprin-tricaprylin mixture; 75 °C, tricaprin fraction 0.36).
`O=c1ccc2ccc(O)c(O)c2o1` gave a plasma concentration of 60.9 nM (human plasma; median, both sexes).
For `CC(C)(C(=O)N1CCOc2c(C#N)cncc2C1)C(F)F`, “subjects with adverse event” read 0% (refers to: Dermatitis; human; oral, 20 mg once daily, 14 days, multiple ascending dose).
The viability of `Nc1ccn([C@@H]2O[C@H](CO)[C@@H](O)C2(F)F)c(=O)n1` is reported as 1.68% (OCI-Ly1; 1 µM, 120 h).
`CCC(=O)N(CCC(c1ccc2c(c1)OCO2)c1ccccc1OC)Cc1ccccc1` (centres unmarked) gave a PDW of 6 fL (female athymic nude mouse, blood; i.p., 60 mg/kg twice daily, 14 days, group mean).
For `CC1CCc2c(N3CCC(O)CC3)c(F)cc3c(=O)c(C(=O)O)cn1c23` (centres unmarked), the Kd was 0.0353 nM (Nuclear receptor subfamily 2 group C member 2 ligand-binding domain; SPR imaging).
For `N#Cc1ccc2c(c1)[C@H]1CCCN(C(=O)c3ccc4[nH]cnc4c3)[C@H]1C2`, “total testosterone level” read 0.7 nmol/L (human females; 240 mg, end of trial).
`[18F]c1ccc(-c2ccc3c(c2)[nH]c2ccncc23)cn1` gave an SUV of 1.8 ± 1.09 (ex vivo biodistribution; APP/PS1 mouse, AD model, bladder; intravenous, 30 min).
The AUC(0-last) of `CC(=O)N[C@H]1CC[C@H](NC(=O)CN2CCN(c3nncc(-c4ccc(C)cc4)n3)CC2)CC1` is reported as 5350 ng·h/mL (men aged 18-55 years, plasma; oral, 100 mg single dose, study).
The plasma concentration of `O=c1c(O)c(-c2ccc(O)c(O)c2)oc2cc(O)cc(O)c12` is reported as 344 nM (human plasma; mean, both sexes).
`COc1ccc2nc(-c3ccccn3)c(N(C)c3ccc(F)cc3)n2c1` gave an elimination half-life of 1.78 h and 1.64 h (male CD-1 mouse, fasted, plasma; oral, 50 mg/kg, added: 1-aminobenzotriazole 50 mg/kg).
`COc1ccc2[nH]c([S+]([O-])Cc3ncc(C)c(OC)c3C)nc2c1` (centres unmarked) has a R/S ratio of 0.76 (human male, plasma and dried plasma spots; oral, dose not given, 4 h, after rifampicin).
The Cmax, metabolite of `CC(F)(F)c1nc2nc(CO)cc(Nc3ccc(S(F)(F)(F)(F)F)cc3)n2n1` is reported as 442 ng/mL (LC-MS/MS; malaria patients, plasma; oral, 250 mg of parent drug).

Repeated from above:
`O=[N+]([O-])c1ccc(-c2ccc(O)cc2)c2cccnc12` gave an MRT of 0.955 h (ICR mice male, plasma; oral, 5 mg/kg).
For `O=C(O)/C=C/c1ccccc1O`, the plasma concentration was 168 nM (human plasma; mean).
